# Assay results gathered from unrelated publications.
# Numbered parts are unrelated; each lists some results of a single study.

# Series 1
# Target: Centromere-binding protein 1, full length, His-tagged (CBF1, Saccharomyces cerevisiae, UniProt P17106, residues 1-351)
# Sequence of UniProt P17106 (whole entry, looked up): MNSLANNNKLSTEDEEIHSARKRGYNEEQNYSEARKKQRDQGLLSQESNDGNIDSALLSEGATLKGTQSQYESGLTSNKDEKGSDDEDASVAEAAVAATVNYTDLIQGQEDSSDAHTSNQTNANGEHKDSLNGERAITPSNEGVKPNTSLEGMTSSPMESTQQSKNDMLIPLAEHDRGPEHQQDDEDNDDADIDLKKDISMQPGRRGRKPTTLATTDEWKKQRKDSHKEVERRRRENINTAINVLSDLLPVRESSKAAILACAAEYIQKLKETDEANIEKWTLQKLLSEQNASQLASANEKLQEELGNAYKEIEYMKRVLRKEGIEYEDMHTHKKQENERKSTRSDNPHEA
# Method: competition protein-binding microarray
# Form: double-stranded DNA, one strand shown
# Matrix: in vitro
# Tested at: 2 µM
# Notes: whole 60-bp probe, lowest competitor level
# Added: Pho4 competitor, 0.05 µM
# Direction: higher = stronger binding
# All sequences stand within: … GTCTTGATTCGCTTGACGCTGCTG
Sequence,fluorescence intensity
GCCATTAGTTTTTTACCTGTGTGGCCATTATACATA,76.5 a.u.
CTTGTCCTCAAATGCGGCGTGCAAAGTTCATAGCGG,81.8 a.u.
ATATGCTTTTGTTCGCATGTGGTGTTATTCCAGTTG,147 a.u.
CTTTCCCGATCTTGTCACCATACTTTAGCACATTTG,78.4 a.u.
CTTGTTAATCTTATCCATGTGGAATCCCCACCACCA,93.1 a.u.
CAGGGCATAAAGAGGCACATGCGGCGTTTGTAGCCG,81.7 a.u.
CCGATGGGTCCCAGACACGTGGTGAAACGAGGTGCA,948 a.u.
TTTCGATCTTCCCATCACGCATAGGGTTTTGAGCTT,70 a.u.
CGTCCTAGTGATTGTCACGCCACTTCCATGAGGAAG,249 a.u.
CATACCCAACCTTGTCACCGTACTTAAGATATTTGT,63.4 a.u.
AAAGCGGTAATTTGGAAAGTGGGTGCAGATATCTAT,86 a.u.
CTTTCCCGATCTTTTCACGTGTGATTAGCACATTTG,615 a.u.
TAACACATAACCCATCACGTGTTGGTCTTGATAGTC,4560 a.u.
TTAGGGCATTTTCGTCACACGGTAGTGCTCCAGATG,79.7 a.u.
TGGAGAAATCTTGCATCCGTGCCGACCACGGCATTT,59.7 a.u.
CTTTTGAGAATTGTCAACGTGGGTAGGTTCGTTTCG,109 a.u.

# Series 2
# Target: Sal-like protein 4, full length isoform A (SALL4, Homo sapiens, UniProt Q9UJQ4, residues 1-1053)
# Sequence of UniProt Q9UJQ4 (whole entry, looked up): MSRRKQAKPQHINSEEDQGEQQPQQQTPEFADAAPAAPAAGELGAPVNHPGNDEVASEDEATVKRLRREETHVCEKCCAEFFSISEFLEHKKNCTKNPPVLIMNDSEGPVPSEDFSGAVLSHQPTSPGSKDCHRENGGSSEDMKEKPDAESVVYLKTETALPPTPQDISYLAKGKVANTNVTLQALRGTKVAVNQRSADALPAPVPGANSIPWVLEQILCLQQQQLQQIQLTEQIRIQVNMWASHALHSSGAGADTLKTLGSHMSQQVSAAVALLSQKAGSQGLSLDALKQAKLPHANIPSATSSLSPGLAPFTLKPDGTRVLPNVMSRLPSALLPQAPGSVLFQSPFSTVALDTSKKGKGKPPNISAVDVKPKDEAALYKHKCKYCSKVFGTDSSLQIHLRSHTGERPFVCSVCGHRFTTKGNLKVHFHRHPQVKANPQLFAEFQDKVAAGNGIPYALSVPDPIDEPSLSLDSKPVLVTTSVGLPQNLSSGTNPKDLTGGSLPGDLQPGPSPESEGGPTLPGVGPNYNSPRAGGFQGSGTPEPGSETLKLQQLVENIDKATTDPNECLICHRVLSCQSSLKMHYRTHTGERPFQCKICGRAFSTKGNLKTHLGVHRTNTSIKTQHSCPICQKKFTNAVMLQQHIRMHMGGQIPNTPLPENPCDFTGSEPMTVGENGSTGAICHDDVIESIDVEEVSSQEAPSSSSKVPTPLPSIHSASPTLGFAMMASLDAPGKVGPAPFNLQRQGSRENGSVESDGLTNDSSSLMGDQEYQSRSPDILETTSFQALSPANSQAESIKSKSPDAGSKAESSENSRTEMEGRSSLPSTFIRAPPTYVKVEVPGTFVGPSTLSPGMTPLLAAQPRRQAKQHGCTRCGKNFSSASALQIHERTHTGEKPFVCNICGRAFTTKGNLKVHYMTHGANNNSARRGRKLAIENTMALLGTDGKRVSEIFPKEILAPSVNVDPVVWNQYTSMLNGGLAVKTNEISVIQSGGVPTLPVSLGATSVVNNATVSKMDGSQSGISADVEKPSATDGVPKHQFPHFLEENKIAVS
# Method: universal PBM
# Form: double-stranded DNA, one strand shown
# Matrix: in vitro
# Tested at: 600 nM
# Notes: 8-mer, flanks averaged, mean of replicates
# Direction: higher = stronger binding
Sequence,E-score
CGAGTGTC,-0.275
ACGCATGC,-0.058
AATCGATG,0.197
CAACTCGA,-0.125
AATGTCTC,-0.0195
CGTAATAA,0.397
ACCACAAC,0.0957
GCGTGACC,-0.289
CGCGAGAA,-0.122
GAGTCCCC,-0.396
AACGTTGC,0.0579
CAGGCGGC,-0.407
CCTTTGCG,-0.0153
CCCTTCTC,-0.206
CCTCAAGC,-0.256
TGGCCCCA,-0.353
GACCTGGA,-0.167
CATGGTCG,-0.138
AACACTGC,-0.0398
GCACTAAC,-0.0903
GACGAAAA,0.206
GGCGCTAC,-0.275
AGCTGATA,0.222
GCCGGCTA,-0.214
CGTTACGA,-0.00898

# Series 3
# Target: RNA binding protein fox-1 homolog 2, RRM domain, GST-SBP tag (RBFOX2, Homo sapiens, UniProt O43251-10, residues 100-194)
# Method: RNA Bind-n-Seq
# Form: RNA
# Matrix: in vitro
# Tested at: 365 nM
# Notes: natural RNA segment, single round, ends assumed
# Reference: no-protein control
# Direction: higher = stronger binding
# All sequences stand within: GGGAGUUCUACAGUCCGACGAUC … UGGAAUUCUCGGGUGCCAA
# Residues (chain): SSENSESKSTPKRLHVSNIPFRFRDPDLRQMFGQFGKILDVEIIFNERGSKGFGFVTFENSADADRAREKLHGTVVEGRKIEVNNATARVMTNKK
Sequence,RBNS enrichment (R)
CUGCUUGAUGAAGCAAGGAAGAUAUACAUGAAAAUUUUAAAAAUACAUAUCGCUGACUUCAUGGAAUGGACAUCCUGUAUAAGCACUGAAAAACAACAACACAAUAACAC,0.975
UUUGCCUCAUAGGCAGAGGAUUCUCCAGGAAGCAUGGAAAAUGGAAUGUUUCCAUGCUUUACAGUGCUGGGAGAGAGGGGAGAUGUGGGCAGGACCUUUUGGAAGGAUGU,3.35
AUUUAUAAGUGCUGCUUACAUCACUGAACAACAACAAAAAAAUAAUAAUGGAGUAGCUGUUGCCCUUCUCCGGUUGUGUGUACAGUAUGUGUGGAAUAAAAAAGGGAAAC,0.695
ACCCUUGGCUUGGGCCCAUGCCCAGCGCAGGCCUGAAGACCACCCUCCCGAGAGGAACCAGCCCGGUAAGAGGGCACACGCUGAUGCGGCUUCCCGGUCCCUCCGCGUGU,0.344
CGUGGCACUUGUAACUCACCGUGCUGUCUUCUGGUCUGUGUGUGUUCUUCAAGCCAGCUCUAGGCUUCAGGCCGAGCCAGGUUCACACUCAGAAAGAGGUCUCCCCAUCC,0.268
GAGCCUCACCUCUGAGUUCAUUCAUGACAUCGACCGAGAACUGAAGACUAUCCAAGCUGUGCUGACUGUCCCCAAGCUGAAGCUGAGCUUCGAAGGCGAACUUACCAAGU,0.308
CAAUGUAGGAUUGCCCACAGUUUUUCUUUUUAAAGGUGGUUUUCGCCCUUCCUCUCCCACAUUAUUUCUUAAUCUGAACAUGAAGGCUCCAUUAGCAACACUAAAACUUG,0.566
GCUUGCAAUAUGAACCUUGGAAACUCAUAUAGCUGGGUGUUUGUUGAAGACUCUGCAUCUCACUGAAAAUAUCAGAAUAUUCAUGUAUUUUCCUUGUCCUUGAGUUUUCC,0.274

# Series 4
# Target: PABPC1L2, full length, GST fusion (mouse, UniProt A0ABA7IW68)
# Method: RNAcompete
# Form: RNA
# Matrix: in vitro
# Tested at: 20 nM
# Notes: 7-mer, probes averaged, single round
# Reference: mean of 7-mers
# Direction: higher = stronger binding
# Construct (chain): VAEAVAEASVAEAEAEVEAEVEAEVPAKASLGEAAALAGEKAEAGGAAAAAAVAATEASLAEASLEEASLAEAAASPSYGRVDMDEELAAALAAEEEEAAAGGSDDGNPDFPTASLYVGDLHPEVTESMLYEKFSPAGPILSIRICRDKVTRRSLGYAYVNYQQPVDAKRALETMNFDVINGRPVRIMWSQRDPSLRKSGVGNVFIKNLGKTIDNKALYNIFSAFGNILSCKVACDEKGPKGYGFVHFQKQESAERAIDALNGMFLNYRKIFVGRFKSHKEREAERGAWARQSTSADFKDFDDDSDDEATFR
Sequence,7-mer Z-score
AAUGGGU,0.229
GCAGAAG,0.12
UAAAAUU,3.23
CCGGAAU,-0.15
GAUAGCG,-0.195
GGGGUCG,0.184
AAAGGGC,1.21
CCUGAGU,-0.28
UCCGAAU,-0.151
UAAUAAC,-0.0283
GAUGGGU,-0.0989
ACCAGCG,-0.0554
GCUUCCA,-0.347
ACCGACA,0.0696
GUAGAGU,-0.175
GGACUUU,-0.0409
AGACCUA,-0.224
UUGAUAC,-0.262
AAUUUGG,0.209
CAUGGCA,0.0569
GGGGGCC,0.258
UUCAUGC,-0.226
ACCCUUC,-0.412
AGAUCGC,-0.391
GGUCUAC,-0.248

# Series 5
# Target: Histone acetyltransferase KAT6A, winged helix 2, GST fusion (KAT6A, Homo sapiens, UniProt Q92794, residues 85-181)
# Method: protein binding microarray
# Form: double-stranded DNA, one strand shown
# Matrix: in vitro
# Tested at: not given
# Notes: 8-mer, flanks averaged, mean of 2 arrays, mostly near background
# Reference: not given
# Direction: higher = stronger binding
# Residues (chain): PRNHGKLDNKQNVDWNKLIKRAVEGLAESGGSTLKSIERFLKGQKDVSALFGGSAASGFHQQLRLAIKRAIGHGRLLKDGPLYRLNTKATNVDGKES
Sequence,E-score
AAAAAGCG,0.00773
CTCGAGTC,-0.0649
CGCGATGA,0.0992
AGTGTCGG,0.0159
AGGTGGTG,-0.168
ACGATAGC,-0.146
ACACTGAG,-0.0196
CGAGTCAG,0.103
GCGTGTGA,-0.0238
CCGCCTGA,0.0834
AACTGAAG,0.0295
AAATTGGA,-0.0769
AAAGTATC,0.0741
GAATGACA,-0.0165
GCTTTCCA,0.131
ACAAGGGA,0.103
GGGTCCTA,-0.0948
CTTCGTGC,0.183
GGCCTATA,-0.272
CACAGTCA,-0.146
GACTTCCC,-0.0352
